Measurements gathered from unrelated publications.
Each line is one published result; not all experiments were run side by side. ± marks the error that the study gave. Values after ≈ are worked out from the molar mass of the structure shown.

| Structure (SMILES) | tested on | test | test system | conditions | how to read | endpoint | result |
| --- | --- | --- | --- | --- | --- | --- | --- |
| CC1=C[C@H](O/C=C2/C(=O)O[C@@H]3c4ccccc4C[C@H]23)OC1=O | Arabidopsis thaliana |  | Col-0 |  |  | maximum germination | 47% |
| CC(C)c1ccc(N(C)c2ccc3c(c2)OCC[C@H]3CNc2cnccc2C(=O)O)cc1 | WM 266-4 | cell growth or viability, ATP luminescence |  | 7 days |  | IC50 | 27.5 nM |
| CCN(CC)CC(=O)Nc1cccc(-n2cc(-c3ccc4ccc(-c5cn(-c6cccc(NC(=O)CN(CC)CC)c6)nn5)cc4c3)nn2)c1 | RCC4 | PCR angiogenesis array, refers to: HPSE |  | 5 x IC50, 2 h, normoxia | relative to: untreated | fold regulation | -1.02 |
| C=CC(=O)Nc1cccc(Cn2ncc3cnc(Nc4cnn(CCOC)c4)nc32)c1 | human BRK | KINOMEscan |  | 100 nM | relative to: control | binding | 97% |
| CNS(=O)(=O)Nc1nccc(Cc2c(C)c3ccc(Oc4ncccc4F)cc3oc2=O)c1F | SCC-3 | cell viability |  | 7 days |  | IC50 | 336 nM |
| Cc1ncsc1-c1ccc(C(C)NC(=O)C2CC(O)CN2C(=O)C(NC(=O)CCCCCCCCCCN2CCCC(Nc3ncc(Cl)c(Nc4ccccc4S(=O)(=O)C(C)C)n3)C2)C(C)(C)C)cc1 (stereo not shown) | 22Rv1 | RNA-seq, refers to: ZNF549 mRNA |  | concentration not given | relative to: DMSO | log2 fold change | -1.23 |
| CC(C)Oc1cccc(C(=O)C2CCCN(Cc3cnn(C(C)C)c3)C2)c1 (stereo not shown) | Trypanosoma cruzi | reporter mRNA translation, inhibitor, refers to: capped polyadenylated Renilla luciferase mRNA | cell-free extract | concentration not given | relative to: control RNA | relative translation | 104% |
| CC(=O)[O-].O.[Cu+2].[O-]c1ccc(Br)cc1C=NCCN1CCOCC1 |  | nitric oxide scavenging |  | 40 µM |  | inhibition | 14.3% |
| CC(NS(=O)(=O)c1ccc(CCC(=O)N2CCN(C)CC2)cc1)c1ccccc1 (stereo not shown) | Trypanosoma cruzi | reporter mRNA translation, inhibitor, refers to: capped polyadenylated Renilla luciferase mRNA | cell-free extract | concentration not given | relative to: control RNA | relative translation | 122% |
| COC1CN([C@H]2CC[C@H]([C@@]3(C)Oc4c(Cl)cc(C(=O)NCc5c(SC)cc(C)[nH]c5=O)c(C)c4O3)CC2)C1 |  | RNA-seq, refers to: MYO1D mouse homolog | mouse, HT-1376 xenograft, whole blood | dose not given | relative to: vehicle | log2 fold change | 0.909 |
| COCCOCCOCCNC(=O)Cc1cc(CC(=O)N[C@H]2C[C@H]3C(=O)Nc4cc(OCCOCCOCCOC)cc(n4)C(=O)N4CCC[C@H]4C(=O)Nc4cc(OCCOCCOCCOC)cc(n4)C(=O)N4CCC[C@H]4C(=O)Nc4cc(OCCOCCOCCOC)cc(n4)C(=O)N3C2)cc(CC(=O)N[C@H]2C[C@H]3C(=O)Nc4cc(OCCOCCOCCOC)cc(n4)C(=O)N4CCC[C@H]4C(=O)Nc4cc(OCCOCCOCCOC)cc(n4)C(=O)N4CCC[C@H]4C(=O)Nc4cc(OCCOCCOCCOC)cc(n4)C(=O)N3C2)c1 |  | anion binding, ITC | water | 298 K, together with: sodium iodide |  | ΔG | -4.92 ± 0.0956 kcal/mol |
| COc1cc(O)ccc1CCC(c1ccc(O)cc1)c1cc2c(c(C)c1O)OC(c1ccc(O)cc1)CC2 (mixture of isomers) |  | refers to: 12-HEPE | human whole blood | 30 µM, together with: Escherichia coli |  | amount | 2900 ± 1320 pg/mL blood |
| C=C(NC(=O)c1csc(-c2nc3c(cc2O)-c2nc(cs2)C(=O)NC(C(C)O)C(=O)NC(=C(C)OC)c2nc(cs2)C(=O)NC2c4nc(cs4)C(=O)NC(COC(=O)c4c5c6c(cccc6n4O)COC(=O)C(OC4CC(C)(O)C(N(C)C)C(C)O4)C2OC5)c2nc-3cs2)n1)C(N)=O (stereo not shown) | Staphylococcus epidermidis |  | MRSE | 10 isolates |  | MIC50 | 7.8 ng/mL (≈ 5.43 nM) |
| O=c1[nH]cc(C(c2ccccc2Br)c2c[nH]c(=O)[nH]c2=O)c(=O)[nH]1 | HIV-1 subtype C | p24 antigen production, p24 ELISA |  | 7.8 µg/mL |  | inhibition | < 25% |
| CN1CCCNC(=O)c2cccc(c2)C(=O)NCCCN(C)CCCNc2cccc3c2C(=O)c2cccc(c2C3=O)NCCC1 | SAS | RNA-Seq, refers to: IL15RA mRNA |  | 1 µM, 6 h | relative to: untreated cells | log2 fold change | 1 |
| Nc1ncc(-c2cc(-c3cnn(CC(F)(F)F)c3)ncc2F)nc1C(=O)NC1CNCC(F)C1 (stereo not shown) | EPHA7 | KINOMEscan |  | 1 µM | relative to: DMSO control | remaining binding | 100% |

Repeated from above:
| Structure (SMILES) | tested on | test | test system | conditions | how to read | endpoint | result |
| --- | --- | --- | --- | --- | --- | --- | --- |
| COCCOCCOCCNC(=O)Cc1cc(CC(=O)N[C@H]2C[C@H]3C(=O)Nc4cc(OCCOCCOCCOC)cc(n4)C(=O)N4CCC[C@H]4C(=O)Nc4cc(OCCOCCOCCOC)cc(n4)C(=O)N4CCC[C@H]4C(=O)Nc4cc(OCCOCCOCCOC)cc(n4)C(=O)N3C2)cc(CC(=O)N[C@H]2C[C@H]3C(=O)Nc4cc(OCCOCCOCCOC)cc(n4)C(=O)N4CCC[C@H]4C(=O)Nc4cc(OCCOCCOCCOC)cc(n4)C(=O)N4CCC[C@H]4C(=O)Nc4cc(OCCOCCOCCOC)cc(n4)C(=O)N3C2)c1 |  | anion binding, ITC | water | 298 K, together with: sodium iodide |  | ΔG | -4.92 ± 0.0956 kcal/mol |
| COc1cc(O)ccc1CCC(c1ccc(O)cc1)c1cc2c(c(C)c1O)OC(c1ccc(O)cc1)CC2 (mixture of isomers) |  | refers to: 12-HEPE | human whole blood | 30 µM, together with: Escherichia coli |  | amount | 2900 ± 1320 pg/mL blood |
